Assay results of several laboratories.
Protocols differ between the studies behind these lines. ± marks the error that the study gave.
UniProt P08684, sequence (whole entry, looked up): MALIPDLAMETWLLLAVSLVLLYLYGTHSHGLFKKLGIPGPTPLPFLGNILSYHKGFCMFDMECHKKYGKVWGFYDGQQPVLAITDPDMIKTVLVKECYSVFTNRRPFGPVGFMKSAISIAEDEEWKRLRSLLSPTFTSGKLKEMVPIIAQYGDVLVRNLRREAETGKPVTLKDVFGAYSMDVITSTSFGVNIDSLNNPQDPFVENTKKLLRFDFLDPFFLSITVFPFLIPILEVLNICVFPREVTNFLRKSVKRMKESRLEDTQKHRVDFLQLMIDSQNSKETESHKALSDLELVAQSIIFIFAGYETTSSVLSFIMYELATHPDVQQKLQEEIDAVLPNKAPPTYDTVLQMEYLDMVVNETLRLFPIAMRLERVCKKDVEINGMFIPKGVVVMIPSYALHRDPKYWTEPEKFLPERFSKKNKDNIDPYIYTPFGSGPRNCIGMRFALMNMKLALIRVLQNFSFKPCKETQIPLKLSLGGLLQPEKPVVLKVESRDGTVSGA
UniProt P07724, sequence (whole entry, looked up): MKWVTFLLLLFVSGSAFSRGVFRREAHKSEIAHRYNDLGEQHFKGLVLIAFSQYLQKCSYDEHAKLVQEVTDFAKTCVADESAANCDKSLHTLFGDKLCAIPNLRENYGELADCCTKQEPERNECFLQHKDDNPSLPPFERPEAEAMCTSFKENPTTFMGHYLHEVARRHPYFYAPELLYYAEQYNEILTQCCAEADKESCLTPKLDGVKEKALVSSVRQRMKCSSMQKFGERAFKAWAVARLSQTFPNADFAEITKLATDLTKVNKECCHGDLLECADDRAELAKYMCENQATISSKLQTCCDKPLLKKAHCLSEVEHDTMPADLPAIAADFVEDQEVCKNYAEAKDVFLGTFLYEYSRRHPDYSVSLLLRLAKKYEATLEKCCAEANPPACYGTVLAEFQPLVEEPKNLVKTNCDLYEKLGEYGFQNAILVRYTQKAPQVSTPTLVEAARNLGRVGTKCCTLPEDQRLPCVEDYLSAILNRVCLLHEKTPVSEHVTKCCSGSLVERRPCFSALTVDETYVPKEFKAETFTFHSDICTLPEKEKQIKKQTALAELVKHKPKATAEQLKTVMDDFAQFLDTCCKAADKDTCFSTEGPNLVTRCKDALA
UniProt O15244, sequence (whole entry, looked up): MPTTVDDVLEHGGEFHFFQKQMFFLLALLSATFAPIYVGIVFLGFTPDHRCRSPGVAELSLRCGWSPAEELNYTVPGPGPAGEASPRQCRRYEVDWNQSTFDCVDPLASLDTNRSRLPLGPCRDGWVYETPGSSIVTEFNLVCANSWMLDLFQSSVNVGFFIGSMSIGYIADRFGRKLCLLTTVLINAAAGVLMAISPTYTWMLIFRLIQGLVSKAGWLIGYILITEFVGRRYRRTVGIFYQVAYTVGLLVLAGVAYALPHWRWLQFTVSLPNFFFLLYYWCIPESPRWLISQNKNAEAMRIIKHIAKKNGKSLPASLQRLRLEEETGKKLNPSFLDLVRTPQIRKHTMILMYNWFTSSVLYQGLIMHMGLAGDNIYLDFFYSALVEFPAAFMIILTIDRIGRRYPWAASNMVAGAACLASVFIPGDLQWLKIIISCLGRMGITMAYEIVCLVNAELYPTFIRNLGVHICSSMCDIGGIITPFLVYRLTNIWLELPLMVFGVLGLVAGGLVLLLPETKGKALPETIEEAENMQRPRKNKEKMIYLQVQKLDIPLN
UniProt O75795, sequence (whole entry, looked up): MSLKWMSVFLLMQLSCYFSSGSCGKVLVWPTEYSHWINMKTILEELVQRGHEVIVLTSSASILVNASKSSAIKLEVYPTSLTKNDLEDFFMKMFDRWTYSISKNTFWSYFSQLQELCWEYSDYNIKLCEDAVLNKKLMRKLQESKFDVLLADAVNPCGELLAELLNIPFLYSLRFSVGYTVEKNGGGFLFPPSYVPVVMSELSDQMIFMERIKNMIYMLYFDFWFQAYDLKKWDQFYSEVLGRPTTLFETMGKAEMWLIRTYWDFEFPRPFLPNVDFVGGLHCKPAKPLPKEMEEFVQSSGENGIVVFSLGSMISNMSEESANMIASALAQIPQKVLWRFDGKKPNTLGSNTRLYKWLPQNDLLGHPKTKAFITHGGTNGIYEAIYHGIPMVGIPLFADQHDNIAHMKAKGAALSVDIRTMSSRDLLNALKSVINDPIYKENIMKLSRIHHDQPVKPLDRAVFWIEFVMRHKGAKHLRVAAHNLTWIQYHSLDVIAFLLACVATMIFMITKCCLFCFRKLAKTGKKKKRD
UniProt P08183, sequence (whole entry, looked up): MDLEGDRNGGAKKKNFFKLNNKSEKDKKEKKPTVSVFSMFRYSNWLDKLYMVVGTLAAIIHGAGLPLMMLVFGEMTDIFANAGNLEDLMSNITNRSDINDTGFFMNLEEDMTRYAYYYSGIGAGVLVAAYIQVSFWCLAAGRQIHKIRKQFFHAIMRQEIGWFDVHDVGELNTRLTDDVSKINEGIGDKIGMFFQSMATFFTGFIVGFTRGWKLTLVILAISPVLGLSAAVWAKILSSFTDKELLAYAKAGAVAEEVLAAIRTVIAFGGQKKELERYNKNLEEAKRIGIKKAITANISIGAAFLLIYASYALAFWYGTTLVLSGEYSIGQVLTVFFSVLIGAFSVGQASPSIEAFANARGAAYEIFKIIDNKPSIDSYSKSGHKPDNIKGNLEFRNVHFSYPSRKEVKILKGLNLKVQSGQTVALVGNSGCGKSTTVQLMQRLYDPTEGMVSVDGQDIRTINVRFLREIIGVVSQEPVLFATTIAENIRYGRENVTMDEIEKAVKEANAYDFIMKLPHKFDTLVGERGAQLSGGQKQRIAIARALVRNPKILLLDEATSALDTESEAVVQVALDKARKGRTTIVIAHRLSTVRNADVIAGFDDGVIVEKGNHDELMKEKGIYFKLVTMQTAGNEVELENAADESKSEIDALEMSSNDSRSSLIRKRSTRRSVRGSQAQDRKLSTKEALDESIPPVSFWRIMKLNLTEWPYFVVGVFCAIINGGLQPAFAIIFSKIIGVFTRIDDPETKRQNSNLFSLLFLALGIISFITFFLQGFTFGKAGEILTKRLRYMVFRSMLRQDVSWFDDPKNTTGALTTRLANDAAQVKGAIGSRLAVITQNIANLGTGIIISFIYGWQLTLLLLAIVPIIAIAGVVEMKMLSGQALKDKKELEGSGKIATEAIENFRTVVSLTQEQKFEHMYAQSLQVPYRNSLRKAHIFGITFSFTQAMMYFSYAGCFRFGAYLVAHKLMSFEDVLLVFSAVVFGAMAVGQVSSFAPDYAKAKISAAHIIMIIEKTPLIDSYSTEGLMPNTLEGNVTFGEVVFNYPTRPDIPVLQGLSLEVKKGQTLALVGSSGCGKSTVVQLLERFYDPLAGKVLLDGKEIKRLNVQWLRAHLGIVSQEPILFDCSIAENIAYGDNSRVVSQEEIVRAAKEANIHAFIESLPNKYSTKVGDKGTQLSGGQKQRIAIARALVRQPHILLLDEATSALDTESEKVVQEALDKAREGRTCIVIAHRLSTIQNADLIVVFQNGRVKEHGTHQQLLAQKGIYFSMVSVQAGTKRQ
UniProt O43704, sequence (whole entry, looked up): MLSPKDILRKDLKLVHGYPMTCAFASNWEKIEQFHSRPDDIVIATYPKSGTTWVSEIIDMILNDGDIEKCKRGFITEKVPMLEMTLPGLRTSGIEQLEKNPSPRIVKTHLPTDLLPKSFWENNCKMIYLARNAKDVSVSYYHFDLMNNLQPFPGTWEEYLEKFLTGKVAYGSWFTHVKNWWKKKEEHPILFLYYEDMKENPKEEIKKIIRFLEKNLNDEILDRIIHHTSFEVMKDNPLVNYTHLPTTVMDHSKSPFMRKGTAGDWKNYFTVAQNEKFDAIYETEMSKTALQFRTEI

| SMILES | tested on | test | system | setting | how to read | measurement | value |
| --- | --- | --- | --- | --- | --- | --- | --- |
| Cn1cc(-c2ccc(-c3cncc(Cl)c3N3CCC4(CCNC4=O)CC3)cc2)cn1 | COLO 205 | gene expression, microarray, measured: ANXA2 mRNA | – | concentration not given, 6 h | baseline: untreated cells | log2 fold change | 1.75 |
| CCc1cc(/C(C)=N/OCc2ccc(C3CCCCC3)c(C(F)(F)F)c2)ccc1CN1CC(C(=O)O)C1 | SLC22A2 (Homo sapiens, UniProt O15244) | inhibitor | HEK293 transfected with SLC22A2 | up to 24.3 µM, 5 min, together with: MPP+ 0.025 µM | – | maximal inhibition | 20.9% |
| CC(C(=O)Nc1ccc(C2CCCCC2)cc1)n1cncn1 (centres unmarked) | – | – | cryopreserved human hepatocytes | 1 µM | – | hepatic clearance | 13 mL/min/kg |
| CCOc1ccc(-c2nc3ccc(-c4nc5ccc(N6CCN(C)CC6)cc5[nH]4)cc3[nH]2)cc1 | Albumin (Mus musculus, UniProt P07724) | – | PBS | 1 µM, 1 h, together with: 25 mg/mL albumin | – | fluorescence quantum yield | 0.033 ± 0.007 |
| Cc1nc(-c2cnc(NC(C)C)n(C)c2=O)ccc1Oc1ccnc(-c2cnn(C)c2)c1 | CYP3A4/5, human | inhibitor | – | 30 min, metabolism-dependent, NADPH preincubation | – | IC50 | > 100 µM |
| O=C(NCCN1CCCC1=O)c1ccc([C@H]2[C@@H](F)[C@@H](F)C[C@@H](F)[C@H]2F)cc1 | – | liver microsome stability | cynomolgus liver microsomes | 1 µM | – | hepatic clearance | 10 mL/min/kg |
| Cc1ccnc([18F])c1-c1cccc(N2C[C@H](N3CCN(C(=O)c4nccs4)CC3)CC2=O)c1 | monoacylglycerol lipase | PET, arterial input | rhesus monkey, brain cerebellum | intravenous, baseline | – | VT | 6.85 mL/cm3 |
| CNCc1cc(-c2ccccc2F)n(S(=O)(=O)c2cccnc2)c1 | CYP2D6 | recombinant CYP with ISEF scaling | – | – | – | fraction metabolised | 49.1% |
| CC(C)NC(=O)COc1cccc(-c2nc(Nc3ccc4[nH]ncc4c3)c3ccccc3n2)c1 | UGT2B17 (Homo sapiens, UniProt O75795) | enzyme activity, inhibitor | recombinant UGT microsomes | together with: testosterone | – | IC50 | > 10 µM |
| COc1cc(O)c(CC=C(C)C)c(O)c1C(=O)/C=C/c1ccc(O)cc1 | CYP2D6 (human) | enzyme activity, inhibitor | human liver microsomes | 10 µM, pH 7.4, together with: dextromethorphan | – | inhibition | < 10% |
| CCOc1c([C@H](C)n2nc(C)c3c(N)ncnc32)cc(Cl)c(F)c1[C@@H]1CNC(=O)C1 | – | – | human B-cell malignancy patients | oral, 30 mg once daily, baseline QTcF ≤450 ms | – | observations with ΔQTcF >30 to ≤60 ms | 0.9% |
| COc1cc(O)c(CC=C(C)C)c2c1C(=O)CC(c1ccc(O)cc1)O2 (centres unmarked) | CYP2D6 (human) | enzyme activity, inhibitor | human liver microsomes | 1 µM, pH 7.4, together with: dextromethorphan | – | inhibition | < 10% |
| O=C1OC(c2ccccc2)=N/C1=C\c1cccc(O)c1 | bovine serum albumin | fructose-induced glycation, inhibitor, measured: fluorescent AGEs | – | 1600 ppm, 21 days, pH 7.4 | – | inhibition | 27.5% |
| COc1cc2c(CCNC(C)=O)c[nH]c2cc1O | SULT1B1 (Homo sapiens, UniProt O43704) | substrate, sulfation, purified enzyme | – | 10 µM, 10 min, pH 7.0, 37 °C | – | specific activity | 0.32 ± 0.02 nmol/min/mg |
| CC1(C)CCC2(CC1)N[C@@H](C(=O)N[C@@H]1CC[C@@H](C(N)=O)OC1)[C@H](c1ccnc(Cl)c1F)[C@]21C(=O)Nc2cc(Cl)ccc21 | ABCB1 (Homo sapiens, UniProt P08183) | – | Caco-2 | 1 µM, 120 min, together with: elacridar 5 µM | – | Papp(B-A) | 3.44 ×10⁻⁶ cm/s |
| CC[C@H]1[C@@H](O)[C@@H]2[C@H](CC[C@]3(C)[C@@H]([C@H](C)CCNC(=O)NS(=O)(=O)c4ccc(C(C)(C)C)cc4)CC[C@@H]23)[C@@]2(C)CC[C@@H](O)C[C@@H]12 | Cytochrome P450 3A4 (CYP3A4, Homo sapiens, UniProt P08684) | substrate | human, plasma | 10 mg, alone, study day 1 | – | CL/F geometric mean | 27.8 L/h |
| C[C@@H](c1ccc2nccn2c1)n1nnc2ncc(-c3cnn(C)c3)nc21 | CYP3A4/5 (human) | enzyme activity, inhibitor | pooled human liver microsomes | pH 7.4, together with: testosterone substrate | – | IC50 | 69 µM |

Excerpt of the above:
| SMILES | tested on | test | system | setting | how to read | measurement | value |
| --- | --- | --- | --- | --- | --- | --- | --- |
| C[C@@H](c1ccc2nccn2c1)n1nnc2ncc(-c3cnn(C)c3)nc21 | CYP3A4/5 (human) | enzyme activity, inhibitor | pooled human liver microsomes | pH 7.4, together with: testosterone substrate | – | IC50 | 69 µM |
